# Assay results of several laboratories.
# Every numbered part comes from another study and shows a few of its results, in no order.
# UniProt O75914, sequence (whole entry, looked up): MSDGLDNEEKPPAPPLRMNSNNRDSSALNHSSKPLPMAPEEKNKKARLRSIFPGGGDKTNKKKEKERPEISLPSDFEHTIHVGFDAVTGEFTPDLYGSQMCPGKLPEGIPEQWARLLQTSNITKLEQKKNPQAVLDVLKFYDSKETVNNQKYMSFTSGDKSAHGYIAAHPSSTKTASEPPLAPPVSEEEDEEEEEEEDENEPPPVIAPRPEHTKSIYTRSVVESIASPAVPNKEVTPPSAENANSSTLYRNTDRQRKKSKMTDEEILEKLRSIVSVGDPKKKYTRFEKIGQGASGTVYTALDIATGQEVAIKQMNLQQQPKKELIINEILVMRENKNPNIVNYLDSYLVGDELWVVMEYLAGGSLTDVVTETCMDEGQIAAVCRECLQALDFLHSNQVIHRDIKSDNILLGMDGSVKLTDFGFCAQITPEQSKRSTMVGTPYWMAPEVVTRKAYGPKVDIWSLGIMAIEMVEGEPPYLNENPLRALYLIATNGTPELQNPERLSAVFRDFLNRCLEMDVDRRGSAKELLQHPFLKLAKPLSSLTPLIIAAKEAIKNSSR
# UniProt Q7KZI7, sequence (whole entry, looked up): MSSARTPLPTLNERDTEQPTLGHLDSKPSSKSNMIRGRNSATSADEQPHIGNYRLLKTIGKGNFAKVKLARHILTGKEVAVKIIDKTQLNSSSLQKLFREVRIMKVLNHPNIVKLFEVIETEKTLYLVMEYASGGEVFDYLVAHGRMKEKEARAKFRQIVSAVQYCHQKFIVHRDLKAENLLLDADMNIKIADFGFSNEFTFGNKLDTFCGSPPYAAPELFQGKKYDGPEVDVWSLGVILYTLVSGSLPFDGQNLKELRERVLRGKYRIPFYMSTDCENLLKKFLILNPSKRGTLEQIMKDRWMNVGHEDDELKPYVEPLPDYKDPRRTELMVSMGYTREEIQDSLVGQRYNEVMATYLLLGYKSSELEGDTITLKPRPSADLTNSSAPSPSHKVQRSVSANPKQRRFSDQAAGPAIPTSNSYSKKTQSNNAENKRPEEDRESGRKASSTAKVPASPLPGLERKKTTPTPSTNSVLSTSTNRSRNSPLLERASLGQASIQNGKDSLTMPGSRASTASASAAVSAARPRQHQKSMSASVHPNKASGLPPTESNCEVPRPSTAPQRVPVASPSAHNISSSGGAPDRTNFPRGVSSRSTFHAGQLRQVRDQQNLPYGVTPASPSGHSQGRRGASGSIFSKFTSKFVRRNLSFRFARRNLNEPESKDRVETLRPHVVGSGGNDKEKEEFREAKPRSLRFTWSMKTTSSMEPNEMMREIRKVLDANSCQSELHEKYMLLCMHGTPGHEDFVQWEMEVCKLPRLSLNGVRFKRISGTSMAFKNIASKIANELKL
# UniProt P27037, sequence (whole entry, looked up): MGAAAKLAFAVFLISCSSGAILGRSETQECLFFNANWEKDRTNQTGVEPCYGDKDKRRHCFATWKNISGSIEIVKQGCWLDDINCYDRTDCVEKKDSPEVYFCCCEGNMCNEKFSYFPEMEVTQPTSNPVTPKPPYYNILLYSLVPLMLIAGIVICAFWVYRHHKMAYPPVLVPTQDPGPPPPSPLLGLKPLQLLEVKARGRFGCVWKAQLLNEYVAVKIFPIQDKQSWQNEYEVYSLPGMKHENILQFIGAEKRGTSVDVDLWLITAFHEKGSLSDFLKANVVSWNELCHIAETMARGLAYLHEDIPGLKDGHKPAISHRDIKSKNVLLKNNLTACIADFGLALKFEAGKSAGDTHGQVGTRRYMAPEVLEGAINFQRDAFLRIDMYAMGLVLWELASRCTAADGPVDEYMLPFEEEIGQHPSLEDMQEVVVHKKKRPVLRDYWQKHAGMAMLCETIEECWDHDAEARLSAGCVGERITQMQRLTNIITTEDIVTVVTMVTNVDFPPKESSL
# UniProt Q9BUB5, sequence (whole entry, looked up): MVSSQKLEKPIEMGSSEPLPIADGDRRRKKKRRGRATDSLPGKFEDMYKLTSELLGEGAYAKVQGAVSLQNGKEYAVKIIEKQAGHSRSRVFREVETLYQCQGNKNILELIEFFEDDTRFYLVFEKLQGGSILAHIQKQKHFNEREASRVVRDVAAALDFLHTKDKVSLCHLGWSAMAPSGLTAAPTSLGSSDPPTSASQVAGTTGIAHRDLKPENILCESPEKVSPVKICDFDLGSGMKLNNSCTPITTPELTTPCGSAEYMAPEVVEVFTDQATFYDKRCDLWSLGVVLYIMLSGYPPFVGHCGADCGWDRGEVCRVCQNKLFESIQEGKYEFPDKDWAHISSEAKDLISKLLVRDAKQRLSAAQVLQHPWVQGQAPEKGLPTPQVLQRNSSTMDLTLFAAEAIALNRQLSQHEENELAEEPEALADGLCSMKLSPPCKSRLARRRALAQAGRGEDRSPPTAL
# UniProt Q96RR4, sequence (whole entry, looked up): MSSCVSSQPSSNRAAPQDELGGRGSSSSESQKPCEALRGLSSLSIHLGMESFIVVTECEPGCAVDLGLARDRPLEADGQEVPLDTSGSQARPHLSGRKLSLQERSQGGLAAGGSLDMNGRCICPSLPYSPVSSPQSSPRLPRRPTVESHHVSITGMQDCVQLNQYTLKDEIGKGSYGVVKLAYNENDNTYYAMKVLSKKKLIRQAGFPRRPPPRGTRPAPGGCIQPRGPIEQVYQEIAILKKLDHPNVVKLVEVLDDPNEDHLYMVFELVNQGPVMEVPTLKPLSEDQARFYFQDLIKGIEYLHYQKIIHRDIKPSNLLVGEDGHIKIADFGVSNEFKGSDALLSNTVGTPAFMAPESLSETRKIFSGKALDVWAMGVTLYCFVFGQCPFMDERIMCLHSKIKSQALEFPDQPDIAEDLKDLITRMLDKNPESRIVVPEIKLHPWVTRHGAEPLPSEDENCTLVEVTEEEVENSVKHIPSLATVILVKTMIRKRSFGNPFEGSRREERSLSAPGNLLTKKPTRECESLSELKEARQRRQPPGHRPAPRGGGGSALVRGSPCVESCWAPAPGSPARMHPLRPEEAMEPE
# UniProt O14730, sequence (whole entry, looked up): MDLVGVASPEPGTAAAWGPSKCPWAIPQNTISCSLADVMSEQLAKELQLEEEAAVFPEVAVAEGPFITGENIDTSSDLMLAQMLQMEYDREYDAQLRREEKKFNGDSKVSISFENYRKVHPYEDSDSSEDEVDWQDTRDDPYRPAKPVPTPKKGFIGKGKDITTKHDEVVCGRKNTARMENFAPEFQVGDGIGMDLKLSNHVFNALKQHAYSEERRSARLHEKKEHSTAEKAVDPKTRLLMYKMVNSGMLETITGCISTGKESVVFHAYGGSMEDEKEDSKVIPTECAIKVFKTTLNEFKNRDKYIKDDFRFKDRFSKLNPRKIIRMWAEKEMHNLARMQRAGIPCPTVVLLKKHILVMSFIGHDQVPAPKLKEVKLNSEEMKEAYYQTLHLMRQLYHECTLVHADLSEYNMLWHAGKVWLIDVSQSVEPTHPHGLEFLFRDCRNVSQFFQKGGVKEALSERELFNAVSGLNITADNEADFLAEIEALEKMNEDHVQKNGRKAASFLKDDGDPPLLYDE
# UniProt P0C1S8, sequence (whole entry, looked up): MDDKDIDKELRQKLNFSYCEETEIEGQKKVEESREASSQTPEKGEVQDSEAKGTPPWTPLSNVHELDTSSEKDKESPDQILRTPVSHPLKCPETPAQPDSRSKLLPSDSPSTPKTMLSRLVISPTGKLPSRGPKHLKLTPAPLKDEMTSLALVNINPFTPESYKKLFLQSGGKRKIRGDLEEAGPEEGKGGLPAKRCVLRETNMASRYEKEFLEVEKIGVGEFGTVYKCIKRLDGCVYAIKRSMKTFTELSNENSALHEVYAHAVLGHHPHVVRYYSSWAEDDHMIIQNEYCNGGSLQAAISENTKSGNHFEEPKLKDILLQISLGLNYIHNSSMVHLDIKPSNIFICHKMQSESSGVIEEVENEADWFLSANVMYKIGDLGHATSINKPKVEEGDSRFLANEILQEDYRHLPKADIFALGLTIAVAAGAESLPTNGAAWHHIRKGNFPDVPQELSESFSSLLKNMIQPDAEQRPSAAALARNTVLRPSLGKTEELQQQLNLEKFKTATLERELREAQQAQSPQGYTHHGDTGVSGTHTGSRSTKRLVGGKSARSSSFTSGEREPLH
# UniProt P50750, sequence (whole entry, looked up): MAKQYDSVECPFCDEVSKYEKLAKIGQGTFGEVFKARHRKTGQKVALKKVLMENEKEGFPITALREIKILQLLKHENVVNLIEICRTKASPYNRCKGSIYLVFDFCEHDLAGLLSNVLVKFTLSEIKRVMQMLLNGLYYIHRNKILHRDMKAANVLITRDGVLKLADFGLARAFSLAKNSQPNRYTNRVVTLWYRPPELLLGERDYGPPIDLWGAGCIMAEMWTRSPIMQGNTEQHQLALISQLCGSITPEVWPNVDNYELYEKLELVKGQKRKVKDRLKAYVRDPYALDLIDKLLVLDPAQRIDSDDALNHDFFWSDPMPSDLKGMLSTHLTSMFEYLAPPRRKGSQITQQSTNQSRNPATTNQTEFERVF

# Series 1
# SMILES: O=C1C(Cl)=C(N2C(=O)CCC2=O)C(=O)c2ccccc21
# Effect on: enzyme activity
# Mode: inhibitor
# Tested at: 0.5 µM
# Relative to: control
target,remaining activity [%]
"KDR (Homo sapiens, UniProt P35968)",88.3
"Cyclin-dependent kinase 9, with cyclin K (CDK9, Homo sapiens, UniProt P50750)",97.2
"RPS6KA4 (Homo sapiens, UniProt O75676)",115
"MET (Homo sapiens, UniProt P08581)",109
"DDR2 (Homo sapiens, UniProt Q16832)",95.8
"MARK2 (Homo sapiens, UniProt Q7KZI7)",79.4
"Myosin-IIIb (MYO3B, Homo sapiens, UniProt Q8WXR4)",112
"PAK3 (Homo sapiens, UniProt O75914)",104

# Series 2
# Target: Sal-like protein 4, full length isoform B (SALL4, Homo sapiens, UniProt Q9UJQ4-2, residues 1-616)
# Method: universal PBM
# Form: double-stranded DNA, one strand shown
# Sample: in vitro
# Tested at: not given
# Notes: 8-mer, flanks averaged, mean of replicates
# Reading: higher = stronger binding
Oligonucleotide,E-score
AACTGATA,0.192
GTGCATGA,0.0522
AGACCTTG,0.0162
GTTACTCA,0.158
AGATCAAG,-0.00899
AACCCTTG,-0.174
CAGTGAAG,-0.00154
ATCTTAGC,0.0369

# Series 3
# SMILES: O=C(NC[C@@H]1[C@H]2CN(C(=O)OCc3cc(C(F)(F)F)cc(C(F)(F)F)c3)C[C@@H]12)c1ccc2[nH]nnc2c1
# Tested at: 1 µM
target,effect on,method,remaining binding [%]
"FLT3 (Homo sapiens, UniProt P36888, K663Q)",cell-free assay,competition with immobilised ligand,98
"FLT3 (Homo sapiens, UniProt P36888, D835Y)",cell-free assay,competition with immobilised ligand,100
"MKNK1 (Homo sapiens, UniProt Q9BUB5)",cell-free assay,competition with immobilised ligand,90
"EGFR (Homo sapiens, UniProt P00533, del747-752/P753S)",cell-free assay,competition with immobilised ligand,83
"Tyrosine-protein kinase ABL1, phosphorylated (ABL1, Homo sapiens, UniProt P00519, Y253F)",cell-free assay,competition with immobilised ligand,95
"ACVR2A (Homo sapiens, UniProt P27037)",cell-free assay,competition with immobilised ligand,92
"WEE2 (Homo sapiens, UniProt P0C1S8)",cell-free assay,competition with immobilised ligand,93
"CILK1 (Homo sapiens, UniProt Q9UPZ9)",cell-free assay,competition with immobilised ligand,100
"FLT3 (Homo sapiens, UniProt P36888, D835V)",cell-free assay,competition with immobilised ligand,100
"MAP2K6 (Homo sapiens, UniProt P52564)",cell-free assay,competition with immobilised ligand,72
"STK39 (Homo sapiens, UniProt Q9UEW8)",cell-free assay,competition with immobilised ligand,80
"LTK (Homo sapiens, UniProt P29376)",cell-free assay,competition with immobilised ligand,98
"SIK1 (Homo sapiens, UniProt P57059)",,competition binding,100
"RET (Homo sapiens, UniProt P07949, M918T)",cell-free assay,competition with immobilised ligand,100
"CAMKK2 (Homo sapiens, UniProt Q96RR4)",cell-free assay,competition with immobilised ligand,91
"RIOK3 (Homo sapiens, UniProt O14730)",cell-free assay,competition with immobilised ligand,94

# Series 4
# Target: Ras GTPase-activating protein-binding protein 1, full length (G3BP1, Homo sapiens, UniProt Q13283)
# UniProt Q13283, sequence (whole entry, looked up): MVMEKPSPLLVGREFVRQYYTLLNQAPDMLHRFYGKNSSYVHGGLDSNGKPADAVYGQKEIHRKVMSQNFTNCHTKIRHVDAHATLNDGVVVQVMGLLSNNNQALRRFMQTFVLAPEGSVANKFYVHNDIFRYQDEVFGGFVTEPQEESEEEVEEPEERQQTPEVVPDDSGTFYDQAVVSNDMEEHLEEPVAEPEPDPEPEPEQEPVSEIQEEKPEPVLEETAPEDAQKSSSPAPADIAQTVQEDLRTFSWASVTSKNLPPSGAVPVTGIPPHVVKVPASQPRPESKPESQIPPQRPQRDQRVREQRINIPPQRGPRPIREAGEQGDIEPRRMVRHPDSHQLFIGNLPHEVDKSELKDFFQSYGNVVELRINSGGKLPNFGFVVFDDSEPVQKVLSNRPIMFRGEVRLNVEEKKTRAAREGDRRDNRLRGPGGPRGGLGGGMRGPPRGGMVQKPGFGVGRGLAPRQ
# Method: RNA Bind-n-Seq
# Form: RNA
# Sample: in vitro
# Tested at: 200 nM
# Notes: whole 134-nt RNA, ends assumed
# Added: 150 mM KCl
# Relative to: input library
# Reading: higher = stronger binding
# Constant ends, left off below: GGGAGUUCUACAGUCCGACGAUC … UGGAAUUCUCGGGUGUCAAGG
Oligonucleotide,log2 enrichment
ACCAUGCAGGUGGGCAUCUUUGGGAAGUGGGGCAAGGGGGGGAUAGGGAGGGGGGUAACACUUUGGGGACAGGUGGUCCCAGGUCGUUUC,1.26
CCUCAAGUCCUGUGCUACACAUCGUAUGUACCGAAUCGGGUGGGGUGGUGGGAAAGUAUUAUGUUACGCCGUUCGGAUCUGCACUUCCAG,1.21
GUCCUGUGCUACACAUCGUAUGUACCGAAUCGGUUUUUUUGGUUUUUGGUUUUUUUGGAAAGUAUUAUGUUACGCCGUUCGGAUCUGCAC,-1.16
UGGCCCUGGUGGCAUGCGUGGAGGAAGAGGUGGCCUCAUGGAUCGUGGUGGUCCCGGUGGAAUGUUCAGAGGUGGCCGUGGUGGAGACAG,0.377
CACAGACAACACGCACCCACACAGACACAGAGGGAAGGGGUUGGGAUGGGGACAGGGUGCACAGCAGGGCGGGGUAGGACCCCAGCACCU,1.9
UGGCCCUGGUGGCAUGCGGGGAGGAAGAGGUGGCCUCAUGGAUCGUGGUUGUCCCGGUGGAAUGUUCAGAGGUGGCCGUGGUGGAGACAG,0.226
UGCAGUCGAGCCAGCACCUGUUUCUGGACCUGCCUAAGGUAAGUGAGCUUUUCUCUCAACCUAGUUUUCAGGAGGCCUCUUCUGUCCCCU,0.236
GUCCUGUGCUACACAUCGUAUGUACCGAAUCGUGUGUGUGUGUGUGUGUGUGUGUGUGAAAGUAUUAUGUUACGCCGUUCGGAUCUGCAC,0.848

# Repeated from above (series 3):
target,effect on,method,remaining binding [%]
"STK39 (Homo sapiens, UniProt Q9UEW8)",cell-free assay,competition with immobilised ligand,80
"CILK1 (Homo sapiens, UniProt Q9UPZ9)",cell-free assay,competition with immobilised ligand,100
"MKNK1 (Homo sapiens, UniProt Q9BUB5)",cell-free assay,competition with immobilised ligand,90
"SIK1 (Homo sapiens, UniProt P57059)",,competition binding,100
"Tyrosine-protein kinase ABL1, phosphorylated (ABL1, Homo sapiens, UniProt P00519, Y253F)",cell-free assay,competition with immobilised ligand,95
